Measured values collected from several papers.
Numbered parts are unrelated; each lists some results of a single study. Positions count from the first letter of the parent shown.

Study 1
Target: CCND2, cyclin fold, Cln2 fusion (human)
Method: yeast growth competition, sequencing
Matrix: yeast
Setting: weak parent motif
Relative to: not given
Reading: higher = stronger binding
Starting sequence: RB1 docking peptide (human); PKPLKKLRFDIEG; partner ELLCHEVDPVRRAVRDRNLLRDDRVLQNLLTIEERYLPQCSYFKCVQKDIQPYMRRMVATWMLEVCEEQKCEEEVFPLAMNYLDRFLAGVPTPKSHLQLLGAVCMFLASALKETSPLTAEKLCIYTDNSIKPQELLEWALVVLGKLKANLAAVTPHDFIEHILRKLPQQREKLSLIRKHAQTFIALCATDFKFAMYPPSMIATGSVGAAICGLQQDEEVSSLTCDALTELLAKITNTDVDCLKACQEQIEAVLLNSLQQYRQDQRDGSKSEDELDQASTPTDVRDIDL
Substitution	normalised enrichment score
PKPLKVLRFDIEG [K6V]	0.108
PPPLKKLRFDIEG [K2P]	0.3
PKPLKKLRFWIEG [D10W]	-0.7
PKPLKKLRHDIEG [F9H]	0.143
PKPLKKLCFDIEG [R8C]	-0.017
PKPLKALRFDIEG [K6A]	0.502
PKPLKKLRFDIKG [E12K]	-0.379
PKPYKKLRFDIEG [L4Y]	0.57
SKPLKKLRFDIEG [P1S]	0.381
PKPLKKKRFDIEG [L7K]	0.417
PKPLKKLRGDIEG [F9G]	0.232
PKPLKKLDFDIEG [R8D]	-0.116
PKPLKKSRFDIEG [L7S]	0.33
PKWLKKLRFDIEG [P3W]	0.364
PKPLKKLRFNIEG [D10N]	0.278
PKPLKKLMFDIEG [R8M]	0.116
PKPLKDLRFDIEG [K6D]	0.386
PKPLKKLRFDIEQ [G13Q]	0.535

Study 2
Target: ABI1, truncated, D143A, DHFR fusion (Arabidopsis thaliana)
Method: DHFR PCA, deep sequencing
Matrix: yeast
Setting: methotrexate growth selection, single substitutions
With: (+)-ABA 0 µM
Relative to: wild-type fitted maximum
Reading: higher = stronger binding
Starting sequence: PYL1, truncated, DHFR fusion (Arabidopsis thaliana); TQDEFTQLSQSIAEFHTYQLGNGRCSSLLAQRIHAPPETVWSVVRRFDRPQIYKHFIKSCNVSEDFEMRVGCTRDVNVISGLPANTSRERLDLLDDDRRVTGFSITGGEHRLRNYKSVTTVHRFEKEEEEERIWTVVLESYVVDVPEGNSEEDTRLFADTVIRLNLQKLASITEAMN
Substitution	relative binding score [%]
E147G	-4.4
M176I	7.8
M176A	7.37
A170R	20.9
F157E	6.66
S80E	-6.59
V70Q	0.0632
L94E	-4.93
R132L	11.7
S42H	7.64
H16D	-0.119
A158F	-3.87
E125Y	9.34
K58A	10.5
P50W	7.09
L82I	20.7
T73A	4.87

Study 3
Target: Interferon regulatory factor 7, full length, phosphomimetic (IRF7, Homo sapiens, UniProt Q92985, residues 1-503, S101K/S471D/S472D/S475D/S476D/S477D/S483D/S484D/S487D)
Method: protein-binding microarray
Molecule type: double-stranded DNA, one strand shown
Matrix: in vitro
Concentration: 250 nM
Setting: 60-bp whole probe
With: salmon DNA 0.4 mg/ml
Relative to: random background probes
Reading: higher = stronger binding
Shared flanks, not repeated: GCCTAGCAC … GTCTTGATTCGCTTGACGCTGCTG
Target sequence (chain): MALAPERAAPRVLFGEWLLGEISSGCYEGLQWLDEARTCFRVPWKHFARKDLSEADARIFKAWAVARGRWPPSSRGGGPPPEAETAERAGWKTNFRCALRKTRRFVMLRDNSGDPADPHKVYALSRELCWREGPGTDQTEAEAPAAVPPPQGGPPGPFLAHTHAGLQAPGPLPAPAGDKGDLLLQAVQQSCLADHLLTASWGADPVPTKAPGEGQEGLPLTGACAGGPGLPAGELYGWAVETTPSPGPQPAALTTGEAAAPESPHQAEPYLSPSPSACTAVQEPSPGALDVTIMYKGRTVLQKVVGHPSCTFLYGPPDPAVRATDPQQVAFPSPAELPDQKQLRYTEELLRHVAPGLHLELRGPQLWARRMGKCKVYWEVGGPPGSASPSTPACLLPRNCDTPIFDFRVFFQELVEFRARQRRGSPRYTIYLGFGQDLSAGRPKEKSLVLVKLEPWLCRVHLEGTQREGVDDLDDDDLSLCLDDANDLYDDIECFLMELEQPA
Sequence	log fluorescence
GTAGGTATCGGGTATCGGTTAGTGCTA	1.17 z-score
TTAGATATCGAGTATCGATTAGTGCTA	0.678 z-score
GACGGTCTCCGACTGGGGACGTGCTAG	-0.55 z-score
TTAGAACTGGGGTTTCGAGTAGTGCTA	2.34 z-score
TTAGAACTGAGTATCAATTAGTGCTAG	-0.341 z-score
TTAGGTTTCGACTATCGGTCAGTGCTA	5.26 z-score
GACGATTTCCTTCTCCTGACGTGCTAG	0.825 z-score
TTAGATATCAGTATCGATTGGTGCTAG	1.05 z-score
GACGGTCTCGGACTGGGGAGGTGCTAG	0.0412 z-score
TCATTCTCCTATTTAAGACTGTGCTAG	2.34 z-score
CTATAAAGCATCAGGAAAGCGTGCTAG	-0.208 z-score
TTAGGTATCGGGTATAGGTTAGTGCTA	0.536 z-score
ACTTAAACTAGAAACTGACTTGTGCTA	0.588 z-score
TCATATTTATTTTTACAACTGTGCTAG	0.794 z-score
GACGGTCTCCTTTTCATGACGTGCTAG	0.972 z-score
TTAGGTTTCCGTCTCCTTTAGTGCTAG	2.84 z-score
CTGTTAAAGAATTAAGAAGGGTGCTAG	0.609 z-score
GACGGACCGGGGTTTCGGGACGTGCTA	1.46 z-score
GACGGACTGGACTATCGGTACGTGCTA	-0.62 z-score
TTAGTTTTCGGGTTTCGATTAGTGCTA	10 z-score
AACGGTATCCTTATCCTGACGTGCTAG	0.354 z-score
TTGCTTTCCTTCTTGAACTCGTGCTAG	1.68 z-score
TGGACTGTGTGTTTGAGTCTGTGCTAG	-0.416 z-score
TTAGATTTCGGGTTTCTATTAGTGCTA	3.91 z-score
GACGGTCTCGGCCTGGGGACGTGCTAG	-0.398 z-score

Study 4
Target: Ras GTPase-activating protein-binding protein 1, full length (G3BP1, Homo sapiens, UniProt Q13283)
UniProt Q13283, sequence (whole entry, looked up): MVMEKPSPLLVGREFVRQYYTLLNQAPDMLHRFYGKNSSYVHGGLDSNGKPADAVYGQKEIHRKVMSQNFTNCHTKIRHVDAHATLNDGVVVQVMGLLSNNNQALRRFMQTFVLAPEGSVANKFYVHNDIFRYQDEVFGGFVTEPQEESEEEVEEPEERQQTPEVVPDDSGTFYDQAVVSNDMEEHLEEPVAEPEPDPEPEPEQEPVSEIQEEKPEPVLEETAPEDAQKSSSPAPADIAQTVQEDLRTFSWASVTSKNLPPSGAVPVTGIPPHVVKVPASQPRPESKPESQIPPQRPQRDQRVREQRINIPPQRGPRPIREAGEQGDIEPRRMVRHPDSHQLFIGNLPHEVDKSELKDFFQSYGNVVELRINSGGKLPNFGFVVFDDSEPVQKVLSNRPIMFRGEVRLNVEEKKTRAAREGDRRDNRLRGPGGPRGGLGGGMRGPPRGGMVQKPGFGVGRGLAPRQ
Method: RNA Bind-n-Seq
Molecule type: RNA
Matrix: in vitro
Concentration: 200 nM
Setting: whole 134-nt RNA, ends assumed
With: 150 mM LiCl
Relative to: input library
Reading: higher = stronger binding
All molecules: 7-deaza-guanosine replaces G
Shared flanks, not repeated: GGGAGUUCUACAGUCCGACGAUC … UGGAAUUCUCGGGUGUCAAGG
Sequence	log2 enrichment
CCUGUGCUACACAUCGUAUGUACCGAAUCAAAUUUUUUUAAACCCCCCCAAAUUUUUAAAAAAGUAUUAUGUUACGCCGUUCGGAUCUGC	0.78
CAAGUCCUGUGCUACACAUCGUAUGUACCGAAUCGGGGUUUGGUUUGGGGUUUGGGAAAGUAUUAUGUUACGCCGUUCGGAUCUGCACUU	-1.46
CACAGACAACACGCACCCACACAGACACAGAGGGAAGGGGUUGGGAUGGGGACAGGGUGCACAACAGGGCGGGGUAGGACCCCAGCCCCU	0.138
UGGGAGGGGGAUUUUGUUUAUUUUUUUAGCUCAUUUCCAGGGGUGGGAAUUUUUUUUUAAUAUGUGUCAUGAAUAAAGUUGUUUUUGAAA	-0.44
AGUCCUGUGCUACACAUCGUAUGUACCGAAUCGGAAAAAAAGGUUUGGUUUUUUUGGAAAGUAUUAUGUUACGCCGUUCGGAUCUGCACU	-2.52
GUCCUGUGCUACACAUCGUAUGUACCGAAUCGGGGAAAGGGGAGGGGAAAAAAAGGGGAAAGUAUUAUGUUACGCCGUUCGGAUCUGCAC	0.683
CUCAAGUCCUGUGCUACACAUCGUAUGUACCGAAUCGGGGAGGGGAGGGGAGGGAAAGUAUUAUGUUACGCCGUUCGGAUCUGCACUUCC	0.139
UUGCAGAUGAGCUUAUGGGGGGCAAUCUUAAAAAGUCCACAGCAGAUGCAUCCGGCUCGAGGGGCCAUCAGCUUUGAAUAAAUGCUUGUU	-1.37
CCUGUGCUACACAUCGUAUGUACCGAAUCGGGGUUUUUUUGGGGAAAAAGGGGUUUGGGGAAAGUAUUAUGUUACGCCGUUCGGAUCUGC	-1.23
CCUGUGCUACACAUCGUAUGUACCGAAUCGGGAAAAAAAGGAAAAAAAGGGGAAAAAAAGGAAAGUAUUAUGUUACGCCGUUCGGAUCUG	0.0831
ACCAUGCAGGUGGGCAUCUUUGGGAAGUGGUGCAAGGGGGGGAUAGGGAGGGGGGUAACACUUUGGGAACAGGUGGUCCCAGGUCGUUUC	0.366

For quick reference, copied from above (study 4):
Sequence	log2 enrichment
CCUGUGCUACACAUCGUAUGUACCGAAUCAAAUUUUUUUAAACCCCCCCAAAUUUUUAAAAAAGUAUUAUGUUACGCCGUUCGGAUCUGC	0.78
CAAGUCCUGUGCUACACAUCGUAUGUACCGAAUCGGGGUUUGGUUUGGGGUUUGGGAAAGUAUUAUGUUACGCCGUUCGGAUCUGCACUU	-1.46
CACAGACAACACGCACCCACACAGACACAGAGGGAAGGGGUUGGGAUGGGGACAGGGUGCACAACAGGGCGGGGUAGGACCCCAGCCCCU	0.138
UGGGAGGGGGAUUUUGUUUAUUUUUUUAGCUCAUUUCCAGGGGUGGGAAUUUUUUUUUAAUAUGUGUCAUGAAUAAAGUUGUUUUUGAAA	-0.44
AGUCCUGUGCUACACAUCGUAUGUACCGAAUCGGAAAAAAAGGUUUGGUUUUUUUGGAAAGUAUUAUGUUACGCCGUUCGGAUCUGCACU	-2.52
GUCCUGUGCUACACAUCGUAUGUACCGAAUCGGGGAAAGGGGAGGGGAAAAAAAGGGGAAAGUAUUAUGUUACGCCGUUCGGAUCUGCAC	0.683
CUCAAGUCCUGUGCUACACAUCGUAUGUACCGAAUCGGGGAGGGGAGGGGAGGGAAAGUAUUAUGUUACGCCGUUCGGAUCUGCACUUCC	0.139
UUGCAGAUGAGCUUAUGGGGGGCAAUCUUAAAAAGUCCACAGCAGAUGCAUCCGGCUCGAGGGGCCAUCAGCUUUGAAUAAAUGCUUGUU	-1.37
CCUGUGCUACACAUCGUAUGUACCGAAUCGGGGUUUUUUUGGGGAAAAAGGGGUUUGGGGAAAGUAUUAUGUUACGCCGUUCGGAUCUGC	-1.23
CCUGUGCUACACAUCGUAUGUACCGAAUCGGGAAAAAAAGGAAAAAAAGGGGAAAAAAAGGAAAGUAUUAUGUUACGCCGUUCGGAUCUG	0.0831
ACCAUGCAGGUGGGCAUCUUUGGGAAGUGGUGCAAGGGGGGGAUAGGGAGGGGGGUAACACUUUGGGAACAGGUGGUCCCAGGUCGUUUC	0.366
